Published values of several laboratories.
DMPK: Myotonin-protein kinase (DMPK, Homo sapiens, UniProt Q09013)
Sequence of UniProt Q09013 (whole entry, looked up): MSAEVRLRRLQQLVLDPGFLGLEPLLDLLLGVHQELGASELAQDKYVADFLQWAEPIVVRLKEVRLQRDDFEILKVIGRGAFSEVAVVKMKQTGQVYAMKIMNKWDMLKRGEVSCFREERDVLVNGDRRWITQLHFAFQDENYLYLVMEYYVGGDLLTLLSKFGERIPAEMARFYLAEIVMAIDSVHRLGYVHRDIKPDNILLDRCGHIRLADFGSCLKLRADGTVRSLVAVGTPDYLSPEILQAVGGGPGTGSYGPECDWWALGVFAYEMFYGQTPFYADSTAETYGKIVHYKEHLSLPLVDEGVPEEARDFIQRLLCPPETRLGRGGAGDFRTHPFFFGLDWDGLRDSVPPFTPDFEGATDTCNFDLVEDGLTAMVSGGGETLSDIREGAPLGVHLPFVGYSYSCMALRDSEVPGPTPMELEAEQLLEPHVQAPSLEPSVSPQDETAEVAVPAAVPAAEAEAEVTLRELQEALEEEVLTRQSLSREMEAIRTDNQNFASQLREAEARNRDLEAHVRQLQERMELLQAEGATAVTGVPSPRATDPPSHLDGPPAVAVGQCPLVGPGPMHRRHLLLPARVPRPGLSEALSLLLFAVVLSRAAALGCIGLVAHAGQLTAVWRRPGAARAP
Sequence of UniProt Q8IW41 (whole entry, looked up): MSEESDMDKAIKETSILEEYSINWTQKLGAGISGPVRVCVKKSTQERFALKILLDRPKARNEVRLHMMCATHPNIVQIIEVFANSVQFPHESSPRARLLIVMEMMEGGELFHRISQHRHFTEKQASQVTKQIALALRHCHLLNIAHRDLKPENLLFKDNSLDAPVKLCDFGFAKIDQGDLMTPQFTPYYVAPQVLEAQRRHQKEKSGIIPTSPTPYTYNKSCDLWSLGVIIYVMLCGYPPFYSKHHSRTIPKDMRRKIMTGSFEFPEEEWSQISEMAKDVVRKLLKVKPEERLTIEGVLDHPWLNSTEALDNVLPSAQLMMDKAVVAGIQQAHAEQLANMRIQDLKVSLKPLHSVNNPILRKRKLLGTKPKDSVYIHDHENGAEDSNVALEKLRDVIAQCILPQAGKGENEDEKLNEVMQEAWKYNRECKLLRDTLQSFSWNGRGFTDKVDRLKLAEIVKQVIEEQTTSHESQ
Sequence of UniProt Q96S53 (whole entry, looked up): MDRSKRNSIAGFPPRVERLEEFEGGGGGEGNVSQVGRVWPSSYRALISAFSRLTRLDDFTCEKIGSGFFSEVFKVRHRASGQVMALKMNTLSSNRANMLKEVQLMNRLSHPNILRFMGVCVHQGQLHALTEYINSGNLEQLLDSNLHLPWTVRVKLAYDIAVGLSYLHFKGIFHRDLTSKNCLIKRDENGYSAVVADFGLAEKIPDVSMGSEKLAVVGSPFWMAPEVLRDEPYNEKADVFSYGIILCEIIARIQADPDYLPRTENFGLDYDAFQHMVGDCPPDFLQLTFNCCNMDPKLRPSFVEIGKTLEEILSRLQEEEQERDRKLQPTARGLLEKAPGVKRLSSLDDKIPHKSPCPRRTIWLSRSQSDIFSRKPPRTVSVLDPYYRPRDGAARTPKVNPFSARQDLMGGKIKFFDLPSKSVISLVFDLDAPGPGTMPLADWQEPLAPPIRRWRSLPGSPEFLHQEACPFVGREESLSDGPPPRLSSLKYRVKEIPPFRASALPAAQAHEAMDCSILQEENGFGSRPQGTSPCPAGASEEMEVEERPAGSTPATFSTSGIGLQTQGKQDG
Sequence of UniProt P33424 (whole entry, looked up): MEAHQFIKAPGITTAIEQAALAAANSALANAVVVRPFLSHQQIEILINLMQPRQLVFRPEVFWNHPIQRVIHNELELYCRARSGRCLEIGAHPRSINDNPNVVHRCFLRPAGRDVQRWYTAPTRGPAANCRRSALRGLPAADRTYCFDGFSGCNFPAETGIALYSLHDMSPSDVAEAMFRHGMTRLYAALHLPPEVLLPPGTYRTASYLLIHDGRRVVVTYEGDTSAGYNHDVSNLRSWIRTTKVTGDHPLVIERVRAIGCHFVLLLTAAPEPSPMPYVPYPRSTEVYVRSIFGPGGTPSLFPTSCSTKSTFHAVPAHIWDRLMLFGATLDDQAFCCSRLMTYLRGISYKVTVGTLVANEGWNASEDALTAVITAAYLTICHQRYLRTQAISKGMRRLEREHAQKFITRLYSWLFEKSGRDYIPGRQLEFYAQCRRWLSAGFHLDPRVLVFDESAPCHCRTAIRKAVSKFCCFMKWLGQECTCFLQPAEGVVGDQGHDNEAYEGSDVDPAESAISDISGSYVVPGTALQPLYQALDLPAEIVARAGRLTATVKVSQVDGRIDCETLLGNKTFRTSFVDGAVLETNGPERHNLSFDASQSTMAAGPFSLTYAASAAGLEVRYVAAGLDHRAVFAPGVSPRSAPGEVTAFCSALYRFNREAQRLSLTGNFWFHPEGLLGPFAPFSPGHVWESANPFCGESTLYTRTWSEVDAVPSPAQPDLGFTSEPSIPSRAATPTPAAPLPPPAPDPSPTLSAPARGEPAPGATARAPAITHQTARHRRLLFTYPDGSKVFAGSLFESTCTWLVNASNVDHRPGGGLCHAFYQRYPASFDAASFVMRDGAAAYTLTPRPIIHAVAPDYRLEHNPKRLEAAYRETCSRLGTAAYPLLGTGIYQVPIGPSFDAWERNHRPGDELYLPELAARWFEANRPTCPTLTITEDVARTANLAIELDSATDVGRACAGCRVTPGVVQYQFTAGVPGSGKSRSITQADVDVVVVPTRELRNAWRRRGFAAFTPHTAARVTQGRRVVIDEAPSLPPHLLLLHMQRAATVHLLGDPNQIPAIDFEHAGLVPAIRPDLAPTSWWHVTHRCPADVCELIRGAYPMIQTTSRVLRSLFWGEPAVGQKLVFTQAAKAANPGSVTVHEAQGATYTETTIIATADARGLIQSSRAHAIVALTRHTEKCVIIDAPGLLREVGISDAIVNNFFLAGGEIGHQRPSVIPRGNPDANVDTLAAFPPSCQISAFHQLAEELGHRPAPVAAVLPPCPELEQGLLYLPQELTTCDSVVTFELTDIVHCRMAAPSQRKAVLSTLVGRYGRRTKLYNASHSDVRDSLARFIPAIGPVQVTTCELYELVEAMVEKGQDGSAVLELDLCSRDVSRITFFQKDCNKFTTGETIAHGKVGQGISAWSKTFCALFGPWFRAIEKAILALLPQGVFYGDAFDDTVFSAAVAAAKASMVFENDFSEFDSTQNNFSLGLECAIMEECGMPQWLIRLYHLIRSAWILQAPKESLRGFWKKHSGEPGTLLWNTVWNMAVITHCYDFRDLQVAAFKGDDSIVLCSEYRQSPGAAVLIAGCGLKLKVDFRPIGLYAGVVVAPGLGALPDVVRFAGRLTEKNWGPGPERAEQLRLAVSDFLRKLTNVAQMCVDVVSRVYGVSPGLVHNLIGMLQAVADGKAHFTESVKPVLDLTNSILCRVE
Sequence of UniProt Q05513 (whole entry, looked up): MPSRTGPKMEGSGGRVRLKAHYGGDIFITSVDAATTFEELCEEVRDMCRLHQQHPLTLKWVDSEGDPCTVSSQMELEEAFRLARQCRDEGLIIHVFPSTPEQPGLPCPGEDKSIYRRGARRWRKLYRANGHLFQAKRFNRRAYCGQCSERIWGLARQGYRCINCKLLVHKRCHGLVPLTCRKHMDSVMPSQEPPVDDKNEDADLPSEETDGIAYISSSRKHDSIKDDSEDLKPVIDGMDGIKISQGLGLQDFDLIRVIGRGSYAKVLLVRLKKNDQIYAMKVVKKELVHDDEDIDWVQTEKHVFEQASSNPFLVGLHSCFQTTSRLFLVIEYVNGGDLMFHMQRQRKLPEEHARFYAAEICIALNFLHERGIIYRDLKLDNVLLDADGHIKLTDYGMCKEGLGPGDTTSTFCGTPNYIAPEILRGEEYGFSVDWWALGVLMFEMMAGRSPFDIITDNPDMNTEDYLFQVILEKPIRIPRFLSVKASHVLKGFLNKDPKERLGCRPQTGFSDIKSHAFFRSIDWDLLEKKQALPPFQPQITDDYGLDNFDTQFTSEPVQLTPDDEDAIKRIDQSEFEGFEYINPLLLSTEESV
Sequence of UniProt P36896 (whole entry, looked up): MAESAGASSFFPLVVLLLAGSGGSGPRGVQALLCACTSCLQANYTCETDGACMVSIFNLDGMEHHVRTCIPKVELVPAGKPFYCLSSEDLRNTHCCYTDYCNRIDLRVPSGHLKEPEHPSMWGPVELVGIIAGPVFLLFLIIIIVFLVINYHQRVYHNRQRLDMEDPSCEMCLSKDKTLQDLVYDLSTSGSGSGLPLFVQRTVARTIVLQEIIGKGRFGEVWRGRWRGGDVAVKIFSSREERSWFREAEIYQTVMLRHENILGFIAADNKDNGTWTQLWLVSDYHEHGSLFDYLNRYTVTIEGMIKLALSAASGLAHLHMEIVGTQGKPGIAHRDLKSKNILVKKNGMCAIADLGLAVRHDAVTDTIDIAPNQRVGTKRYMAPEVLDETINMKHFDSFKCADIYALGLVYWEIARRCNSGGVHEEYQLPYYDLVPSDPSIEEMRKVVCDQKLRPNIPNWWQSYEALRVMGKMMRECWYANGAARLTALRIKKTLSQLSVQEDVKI
Sequence of UniProt P49935 (whole entry, looked up): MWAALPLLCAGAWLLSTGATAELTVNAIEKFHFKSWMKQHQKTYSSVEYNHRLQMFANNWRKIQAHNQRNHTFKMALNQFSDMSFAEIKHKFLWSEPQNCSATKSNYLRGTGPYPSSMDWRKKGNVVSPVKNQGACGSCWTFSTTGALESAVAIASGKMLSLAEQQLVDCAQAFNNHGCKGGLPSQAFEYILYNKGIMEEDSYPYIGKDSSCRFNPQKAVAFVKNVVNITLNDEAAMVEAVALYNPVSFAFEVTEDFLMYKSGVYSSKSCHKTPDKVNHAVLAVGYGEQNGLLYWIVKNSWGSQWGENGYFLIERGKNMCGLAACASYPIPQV

`C=CC(=O)N1CCC[C@@H](n2nc(-c3ccc(Oc4ccccc4)cc3)c3c(N)ncnc32)C1` has a remaining activity of 45.8% (TESK2 (Homo sapiens, UniProt Q96S53); 10 µM).
The remaining activity of `Cc1cc(Nc2cc(N3CCN(C)CC3)nc(Sc3ccc(NC(=O)C4CC4)cc3)n2)[nH]n1` is reported as 109% (MAPKAPK5 (Homo sapiens, UniProt Q8IW41); kinase activity, KinaseProfiler; 0.03 µM, species human; reference: control).
`Cn1cc(-c2ccc(-c3cncc(Cl)c3N3CCC4(CCNC4=O)CC3)cc2)cn1` — result for “log2 fold change”: -2.89 (COLO 205; gene expression, microarray, measured: SLC9A1 mRNA; concentration not given, 2 h; reference: untreated cells).
For `O=C(O)c1ccc(Nc2ncc3c(n2)-c2ccc(Cl)cc2C(c2c(F)cccc2F)=NC3)cc1`, the remaining activity was 94% (PAK3(h); kinase activity; 1 µM).
With `CNc1ncc2c(/C=C/C(=O)N3CCC(OC)CC3)nn(Cc3cccc(C(F)(F)F)c3)c2n1` the remaining activity was 97% (DMPK; kinase activity, inhibitor; 1 µM; reference: untreated control).
`O=C(NC1CCC1)c1ccc2nc(-c3cccc(NS(=O)(=O)NCCN4CCCCC4)c3)cn2c1` has a remaining activity of 100% (ACVR1B (Homo sapiens, UniProt P36896); enzyme activity; 10 µM).
`O=C1NC(=O)/C(=C/c2ccc(-c3ccc(F)cc3O)o2)S1` gave a remaining activity of 96% (PRKCZ (Homo sapiens, UniProt Q05513); enzyme activity; 10 µM).
`COc1cc(F)ccc1-c1ncnc(Nc2cccc(C[S@](C)(=N)=O)c2)n1` has a remaining activity of 94% (DMPK; kinase activity; 10 µM, added: 10 µM ATP).
The remaining activity of `NC(=O)c1ncn([C@@H]2O[C@H](CO[P@@](=O)(O)O[P@](=O)(O)OP(=O)(O)O)[C@@H](O)[C@H]2O)n1` is reported as 93.1% (Non-structural polyprotein pORF1, helicase domain (Hepatitis E virus genotype 1, UniProt P33424); ATPase activity, inhibitor, colorimetric; 28 µM; reference: untreated).
With `COc1cc(-c2cncc3c2CN(C)Cc2cc(N4CCNCC4)ccc2-3)cc(OC)c1OC` the remaining activity was 100% (DMPK; kinase activity; 1 µM, human enzyme, added: ATP 10 µM; reference: DMSO control).
With `Cc1cccc(C)c1C(=O)OCC(=O)[C@H](CCCCN)NC(=O)[C@H](CCCNC(=N)N)NC(=O)OCc1ccccc1` the remaining activity was 92% (Pro-cathepsin H (Ctsh, Mus musculus, UniProt P49935); inhibitor; 1 µM, room temperature, added: AMC substrate).
With `COc1cc(Nc2ncc3c(n2)-c2ccc(Cl)cc2C(c2c(F)cccc2OC)=NC3)ccc1C(=O)O` the remaining activity was 27% (PTK2; kinase activity; 1 µM).

Excerpt of the above:
The remaining activity of `NC(=O)c1ncn([C@@H]2O[C@H](CO[P@@](=O)(O)O[P@](=O)(O)OP(=O)(O)O)[C@@H](O)[C@H]2O)n1` is reported as 93.1% (Non-structural polyprotein pORF1, helicase domain (Hepatitis E virus genotype 1, UniProt P33424); ATPase activity, inhibitor, colorimetric; 28 µM; reference: untreated).
With `COc1cc(Nc2ncc3c(n2)-c2ccc(Cl)cc2C(c2c(F)cccc2OC)=NC3)ccc1C(=O)O` the remaining activity was 27% (PTK2; kinase activity; 1 µM).
